{"data": "Experimental data collected from several papers", "note": "A part holds a random share of what one study measured."}
{"data": "Sample 1", "target": "Histone acetyltransferase KAT6A, winged helix 1, GST fusion (KAT6A, Homo sapiens, UniProt Q92794, residues 1-85)", "method": "protein binding microarray", "molecule type": "double-stranded DNA, one strand shown", "sample": "in vitro", "concentration": "not given", "notes": "8-mer, flanks averaged, mean of 2 arrays, mostly near background", "baseline": "not given", "reading": "higher = stronger binding", "Residues (chain)": "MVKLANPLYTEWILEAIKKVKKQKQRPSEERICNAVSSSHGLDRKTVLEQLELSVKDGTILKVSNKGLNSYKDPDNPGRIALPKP"}
{"Oligonucleotide": "AAGTCCGA", "E-score": 0.0116}
{"Oligonucleotide": "GATAAACC", "E-score": 0.0825}
{"Oligonucleotide": "GTTACTGA", "E-score": 0.162}
{"Oligonucleotide": "CTGCTCAC", "E-score": -0.171}
{"Oligonucleotide": "CGTATTGC", "E-score": 0.215}
{"Oligonucleotide": "GGAGAGGA", "E-score": -0.125}
{"Oligonucleotide": "ACAAAGCT", "E-score": -0.0457}
{"data": "Sample 2", "target": "Ras GTPase-activating protein-binding protein 1, C-terminal RGG region (G3BP1, Homo sapiens, UniProt Q13283)", "method": "RNA Bind-n-Seq", "molecule type": "RNA", "sample": "in vitro", "concentration": "1 µM", "notes": "whole 134-nt RNA, ends assumed", "with": "150 mM KCl", "baseline": "input library", "reading": "higher = stronger binding", "UniProt Q13283, sequence (whole entry, looked up)": "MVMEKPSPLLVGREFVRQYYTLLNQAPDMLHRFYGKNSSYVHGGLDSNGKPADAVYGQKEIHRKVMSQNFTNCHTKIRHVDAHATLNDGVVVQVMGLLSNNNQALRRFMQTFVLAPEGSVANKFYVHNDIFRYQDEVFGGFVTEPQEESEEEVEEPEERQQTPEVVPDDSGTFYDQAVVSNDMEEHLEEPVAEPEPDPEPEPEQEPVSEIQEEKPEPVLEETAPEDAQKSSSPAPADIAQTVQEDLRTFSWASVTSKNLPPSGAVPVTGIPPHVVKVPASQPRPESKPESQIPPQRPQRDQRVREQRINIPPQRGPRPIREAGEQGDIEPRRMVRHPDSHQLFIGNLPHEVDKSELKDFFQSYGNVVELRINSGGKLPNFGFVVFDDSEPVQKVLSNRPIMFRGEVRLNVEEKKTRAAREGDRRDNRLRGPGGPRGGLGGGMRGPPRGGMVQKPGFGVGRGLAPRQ"}
{"Oligonucleotide": "GGGAGUUCUACAGUCCGACGAUCCACAGACAACACGCACCCACACAGACACAGAGGGAAGGGGUUGGGAUGGGGACAGGGUGCACAGCAGGGCGGGGUAGGACCCCAGCACCUUGGAAUUCUCGGGUGUCAAGG", "log2 enrichment": -1.07}
{"Oligonucleotide": "GGGAGUUCUACAGUCCGACGAUCUGGCCCUGGUGGCAUGCGGGGAGGAAGAGGUGGCCUCAUGUAUCGUGGUGGUCCCGGUGGAAUGUUCAGAGGUGGCCGUGGUGGAGACAGUGGAAUUCUCGGGUGUCAAGG", "log2 enrichment": 1.74}
{"Oligonucleotide": "GGGAGUUCUACAGUCCGACGAUCAAGUCCUGUGCUACACAUCGUAUGUACCGAAUCGGUUUUUGGAAAAAGGUUUUUGGAAAGUAUUAUGUUACGCCGUUCGGAUCUGCACUUUGGAAUUCUCGGGUGUCAAGG", "log2 enrichment": -2.22}
{"data": "Sample 3", "target": "Sal-like protein 4, full length isoform B (SALL4, Homo sapiens, UniProt Q9UJQ4-2, residues 1-616)", "method": "universal PBM", "molecule type": "double-stranded DNA, one strand shown", "sample": "in vitro", "concentration": "not given", "notes": "8-mer, flanks averaged, mean of replicates", "reading": "higher = stronger binding", "Target sequence (chain)": "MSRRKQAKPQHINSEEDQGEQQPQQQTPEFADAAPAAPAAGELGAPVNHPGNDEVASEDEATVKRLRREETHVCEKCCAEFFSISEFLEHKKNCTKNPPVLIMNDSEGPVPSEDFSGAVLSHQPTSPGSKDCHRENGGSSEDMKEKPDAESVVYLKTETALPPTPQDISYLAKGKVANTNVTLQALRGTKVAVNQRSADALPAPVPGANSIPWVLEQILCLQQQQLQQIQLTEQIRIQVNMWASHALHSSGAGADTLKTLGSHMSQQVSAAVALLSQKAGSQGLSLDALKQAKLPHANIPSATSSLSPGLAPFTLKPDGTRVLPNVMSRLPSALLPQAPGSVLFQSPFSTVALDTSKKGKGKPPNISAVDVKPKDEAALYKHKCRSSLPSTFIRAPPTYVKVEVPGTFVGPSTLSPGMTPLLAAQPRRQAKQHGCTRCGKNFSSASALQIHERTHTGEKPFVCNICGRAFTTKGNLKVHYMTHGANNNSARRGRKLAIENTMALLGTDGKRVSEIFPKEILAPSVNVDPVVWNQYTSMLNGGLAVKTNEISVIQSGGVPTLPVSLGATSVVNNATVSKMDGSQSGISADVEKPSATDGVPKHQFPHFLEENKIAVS"}
{"Oligonucleotide": "AATTCGAG", "E-score": 0.0907}
{"Oligonucleotide": "AACGTAAA", "E-score": 0.286}
{"Oligonucleotide": "GGGCCCGA", "E-score": -0.196}
{"Oligonucleotide": "GTTGCAGA", "E-score": -0.0575}
{"Oligonucleotide": "CAAGAGCC", "E-score": -0.135}
{"Oligonucleotide": "CCGGGAGG", "E-score": -0.425}
{"Oligonucleotide": "CTCGCACC", "E-score": -0.25}
{"data": "Further values, each from its own experiment"}
{"Substance": "PhoQ, residues 284 288 289 292 302 303 SLSLLA", "target": "PhoP, residues 12 14 15 18 19 QWHVF (Escherichia coli, UniProt P23836)", "assay": "Sort-seq, refers to: YFP reporter", "test system": "E. coli", "setting": "PhoQ-PhoP variant library, with: 10 µM Mg2+", "scale": "baseline: high Mg2+ state, higher = stronger signaling", "endpoint": "fold induction", "value": 7.38}
{"note": "Excerpt of the above (sample 3):"}
{"Oligonucleotide": "AACGTAAA", "E-score": 0.286}
{"Oligonucleotide": "GGGCCCGA", "E-score": -0.196}
